Measured values gathered from unrelated publications.
Lines come from different studies, so protocols differ. Several values in a cell are separate wells, animals, samples, runs or records. ± marks the error that the study gave.
CXCR4: C-X-C chemokine receptor type 4 (CXCR4, Homo sapiens, UniProt P61073)
UniProt P61073, sequence (whole entry, looked up): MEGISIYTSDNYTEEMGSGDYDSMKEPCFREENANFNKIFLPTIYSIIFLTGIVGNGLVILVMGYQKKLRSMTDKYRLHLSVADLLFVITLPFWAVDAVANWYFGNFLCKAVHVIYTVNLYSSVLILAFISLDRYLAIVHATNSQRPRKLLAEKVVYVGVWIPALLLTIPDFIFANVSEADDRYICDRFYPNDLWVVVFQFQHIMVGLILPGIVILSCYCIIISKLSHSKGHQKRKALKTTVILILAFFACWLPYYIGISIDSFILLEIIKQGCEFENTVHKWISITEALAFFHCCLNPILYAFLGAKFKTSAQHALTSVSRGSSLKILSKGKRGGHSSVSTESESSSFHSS
FAAH: Fatty-acid amide hydrolase 1 (FAAH, Homo sapiens, UniProt O00519)
UniProt O00519, sequence (whole entry, looked up): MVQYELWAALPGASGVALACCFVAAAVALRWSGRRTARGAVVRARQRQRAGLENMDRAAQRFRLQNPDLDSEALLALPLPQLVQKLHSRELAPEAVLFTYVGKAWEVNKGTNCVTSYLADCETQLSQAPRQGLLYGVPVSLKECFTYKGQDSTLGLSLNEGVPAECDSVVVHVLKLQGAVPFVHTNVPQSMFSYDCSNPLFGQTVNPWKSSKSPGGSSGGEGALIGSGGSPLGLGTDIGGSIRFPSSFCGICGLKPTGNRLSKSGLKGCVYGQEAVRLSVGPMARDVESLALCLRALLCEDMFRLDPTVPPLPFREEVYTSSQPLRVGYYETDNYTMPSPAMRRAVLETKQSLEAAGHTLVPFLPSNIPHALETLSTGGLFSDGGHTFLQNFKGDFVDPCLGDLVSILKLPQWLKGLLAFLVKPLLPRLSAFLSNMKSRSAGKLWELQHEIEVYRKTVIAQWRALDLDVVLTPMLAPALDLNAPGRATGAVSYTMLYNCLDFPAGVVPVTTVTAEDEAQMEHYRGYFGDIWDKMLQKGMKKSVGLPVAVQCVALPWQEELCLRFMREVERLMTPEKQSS
PARP1: Poly [ADP-ribose] polymerase 1 (PARP1, Homo sapiens, UniProt P09874)
UniProt P09874, sequence (whole entry, looked up): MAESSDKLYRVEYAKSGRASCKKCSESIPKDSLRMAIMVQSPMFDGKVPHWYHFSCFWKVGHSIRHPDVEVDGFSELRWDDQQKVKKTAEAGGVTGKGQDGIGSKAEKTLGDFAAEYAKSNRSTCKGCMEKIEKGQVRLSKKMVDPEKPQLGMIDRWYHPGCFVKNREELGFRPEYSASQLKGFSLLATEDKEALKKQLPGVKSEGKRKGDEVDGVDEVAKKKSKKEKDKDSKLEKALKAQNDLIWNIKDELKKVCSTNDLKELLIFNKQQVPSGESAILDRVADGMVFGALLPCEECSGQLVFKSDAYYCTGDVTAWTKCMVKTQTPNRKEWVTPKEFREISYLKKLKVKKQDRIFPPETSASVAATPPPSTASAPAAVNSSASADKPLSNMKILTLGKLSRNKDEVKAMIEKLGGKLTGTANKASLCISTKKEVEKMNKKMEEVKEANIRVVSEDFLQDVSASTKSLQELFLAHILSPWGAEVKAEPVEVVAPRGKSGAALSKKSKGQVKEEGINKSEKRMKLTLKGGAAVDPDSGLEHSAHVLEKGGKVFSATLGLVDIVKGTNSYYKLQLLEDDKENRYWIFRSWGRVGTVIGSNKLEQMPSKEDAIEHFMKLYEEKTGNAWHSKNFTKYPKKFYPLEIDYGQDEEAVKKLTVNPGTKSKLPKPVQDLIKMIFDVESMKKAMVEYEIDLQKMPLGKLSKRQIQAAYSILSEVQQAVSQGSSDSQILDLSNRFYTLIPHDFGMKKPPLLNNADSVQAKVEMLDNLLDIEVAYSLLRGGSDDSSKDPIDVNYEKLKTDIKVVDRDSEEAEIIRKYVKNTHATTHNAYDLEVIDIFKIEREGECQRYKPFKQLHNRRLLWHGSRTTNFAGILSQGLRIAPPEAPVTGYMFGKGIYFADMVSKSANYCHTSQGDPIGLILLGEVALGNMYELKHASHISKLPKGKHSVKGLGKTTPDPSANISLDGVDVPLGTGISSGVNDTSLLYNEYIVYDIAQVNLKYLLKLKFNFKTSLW
UniProt P32745, sequence (whole entry, looked up): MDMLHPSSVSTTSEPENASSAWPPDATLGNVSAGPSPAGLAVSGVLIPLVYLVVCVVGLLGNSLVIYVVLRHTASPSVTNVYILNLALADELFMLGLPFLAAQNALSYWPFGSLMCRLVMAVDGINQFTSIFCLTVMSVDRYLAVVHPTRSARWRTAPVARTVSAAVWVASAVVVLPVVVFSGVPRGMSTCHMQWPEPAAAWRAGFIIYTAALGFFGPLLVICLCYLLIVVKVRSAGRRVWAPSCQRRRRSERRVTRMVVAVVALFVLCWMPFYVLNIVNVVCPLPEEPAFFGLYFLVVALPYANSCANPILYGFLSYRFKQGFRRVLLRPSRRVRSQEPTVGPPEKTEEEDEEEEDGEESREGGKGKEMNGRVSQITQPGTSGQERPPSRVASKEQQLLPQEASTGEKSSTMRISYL
UniProt Q8IIJ9, sequence (whole entry, looked up): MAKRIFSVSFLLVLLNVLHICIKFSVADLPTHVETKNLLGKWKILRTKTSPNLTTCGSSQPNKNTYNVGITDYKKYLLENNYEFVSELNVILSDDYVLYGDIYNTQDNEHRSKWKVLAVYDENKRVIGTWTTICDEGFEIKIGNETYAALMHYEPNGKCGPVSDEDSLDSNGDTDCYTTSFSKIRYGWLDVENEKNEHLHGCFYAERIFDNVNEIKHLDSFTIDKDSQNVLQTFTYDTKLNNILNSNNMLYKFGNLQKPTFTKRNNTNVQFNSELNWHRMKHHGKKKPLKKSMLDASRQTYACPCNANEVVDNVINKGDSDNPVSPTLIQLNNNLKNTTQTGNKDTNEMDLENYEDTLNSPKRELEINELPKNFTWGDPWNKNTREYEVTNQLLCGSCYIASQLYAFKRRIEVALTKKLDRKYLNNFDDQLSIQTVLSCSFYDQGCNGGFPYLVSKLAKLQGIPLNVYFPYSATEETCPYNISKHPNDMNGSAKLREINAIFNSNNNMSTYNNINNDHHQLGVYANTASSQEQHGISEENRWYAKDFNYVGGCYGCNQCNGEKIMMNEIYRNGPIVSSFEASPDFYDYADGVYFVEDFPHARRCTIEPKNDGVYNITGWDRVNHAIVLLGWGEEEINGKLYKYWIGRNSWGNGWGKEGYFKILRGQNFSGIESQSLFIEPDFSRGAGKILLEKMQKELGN
UniProt P28072, sequence (whole entry, looked up): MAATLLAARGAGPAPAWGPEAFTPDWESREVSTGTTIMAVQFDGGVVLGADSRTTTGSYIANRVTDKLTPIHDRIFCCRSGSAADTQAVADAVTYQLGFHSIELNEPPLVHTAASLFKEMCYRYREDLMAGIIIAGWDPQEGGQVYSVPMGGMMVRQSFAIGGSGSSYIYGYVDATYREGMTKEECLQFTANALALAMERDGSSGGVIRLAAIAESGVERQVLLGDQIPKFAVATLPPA
UniProt O55242, sequence (whole entry, looked up): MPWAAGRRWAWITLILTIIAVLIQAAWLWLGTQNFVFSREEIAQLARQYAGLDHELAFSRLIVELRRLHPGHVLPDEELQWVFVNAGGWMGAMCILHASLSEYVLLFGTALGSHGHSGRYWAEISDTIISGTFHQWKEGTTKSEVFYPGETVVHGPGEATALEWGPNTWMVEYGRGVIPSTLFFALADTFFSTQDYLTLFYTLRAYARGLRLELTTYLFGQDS

For Cn1ncc(Nc2ccc3c(c2)CCN(CCCCCNC(=O)COc2cccc4c2C(=O)N(C2CCC(=O)NC2=O)C4=O)C3)c(Cl)c1=O (centres unmarked), the IC50 was 0.024 ± 0.009 µM (Nucleosome-remodeling factor subunit BPTF, bromodomain (BPTF, Homo sapiens, UniProt Q12830); binding, AlphaScreen; bromodomain, with: H4 acetylated peptide, 100 nM).
With CC(C)C1=CC[C@H]2C(=C1)CC[C@@H]1[C@]2(C)CCC[C@@]1(C)C(=O)O the IC50 was 0.148 µM (Carbonic anhydrase 9 (CA9, Homo sapiens, UniProt Q16790); enzyme activity, inhibitor, stopped-flow; pH 7.4).
For O=C(O)c1cc2c(C(F)(F)F)cc(-c3ccccc3)cc2n1O, the IC50 was 123.8 ± 0.7 µM (L-lactate dehydrogenase B chain (LDHB, Homo sapiens, UniProt P07195); inhibitor, NADH fluorescence; NADH competition, with: 1440 µM pyruvate, 40 µM NADH).
c1nc2c(NCc3ccc(CNCCCNC4CCCCC4)cn3)nc(N3CCNCC3)nc2[nH]1 has an IC50 of 0.0459 µM (CXCR4; ligand displacement, radioligand; cell membranes).
For [Zn+2], the IC50 was 0.018 µM (Glutamate NMDA receptor; Grin1/Grin2a (Grin1/Grin2a, Rattus norvegicus, UniProt P35439+Q00959); pH 6.8).
Cn1c(=O)c(=O)n(C)c2cc(S(=O)(=O)NNC(=O)CCl)ccc21 has an IC50 of 9.5e-05 µM (Dipeptidyl peptidase 4 (DPP4, Homo sapiens, UniProt P27487); enzyme activity, inhibitor, fluorescence).
Cc1ccc(N2CN(CC(=O)Nc3cccc(Cl)c3)S(=O)(=O)c3cccnc32)cc1 has an IC50 of 65 µM (Tyrosine--tRNA ligase 1 (tyrS1, Pseudomonas aeruginosa, UniProt Q9HWP3); tRNA aminoacylation, scintillation proximity; TyrRS-S).
With COc1ccc(C2=NN(C(=O)CCC(=O)O)C(c3cn(-c4ccccc4)nc3-c3ccc(C)cc3)C2)cc1 (centres unmarked) the IC50 was 71.7 µM (Replication protein A 70 kDa DNA-binding subunit (RPA1, Homo sapiens, UniProt P27694); protein-nucleic acid interaction, inhibitor, mobility shift).
The IC50 of CCOC(=O)c1c(C)oc2c1cc(NS(=O)(=O)c1ccc(OCC)cc1)c1ccccc12 is reported as 2.9 ± 0.75 µM (Cyclin-dependent kinase 1, with cyclin A2 (CDK1, Homo sapiens, UniProt P06493); enzyme activity, inhibitor, ADP-Glo; upper-bound estimate, partial inhibition).
The IC50 of CC(C)NCc1ccc(C[C@@H]2NC(=O)[C@@H](N(C)C(=O)c3ccc4ccccc4c3)NC(=O)[C@H](Cc3ccccc3)NC(=O)[C@@H](N)CSSC[C@@H](C(N)=O)NC(=O)[C@H](Cc3ccc(O)cc3)NC2=O)cc1 is reported as 0.317 µM and 0.381 µM (Somatostatin receptor type 3 (SSTR3, Homo sapiens, UniProt P32745); ligand displacement, radioligand; cell membranes).
CN(C)c1cc2c(Nc3ccc4c(cnn4Cc4ccccc4)c3)ncnc2cn1 gave an IC50 of over 10 µM (Vascular endothelial growth factor receptor 1 (FLT1, Homo sapiens, UniProt P17948)).
With CCC(C)Oc1nc(N)nc(N)c1C#N (centres unmarked) the IC50 was 13 µM and 10 to 20 µM and 9.6 µM (Cyclin-dependent kinase 2 (CDK2, Homo sapiens, UniProt P24941); enzyme activity, inhibitor).
Cc1nc2ccccc2n1Cc1ccc(C(=O)NO)cc1 gave an IC50 of 0.305 µM (Histone deacetylase 8 (HDAC8, Homo sapiens, UniProt Q9BY41); concentration not given).
With O=C(NNC(=O)c1ccc(CNS(=O)(=O)c2ccc(F)c(Cl)c2)cc1)c1ccccc1 the IC50 was 0.78 µM (Glutamate NMDA receptor; Grin1/Grin2a (Grin1/Grin2a, Rattus norvegicus, UniProt P35439+Q00959, Q781A); ion current, two-electrode voltage clamp; oocytes).
With CCCCCCCCCCCCCC(=S)NCCCCC(NC(=O)OCc1ccccc1)C(=O)Nc1ccccc1 (centres unmarked) the IC50 was 77 µM (NAD-dependent protein deacetylase sirtuin-3, mitochondrial (SIRT3, Homo sapiens, UniProt Q9NTG7); deacetylase activity, inhibitor; no pre-incubation, with: H3K9-Ac peptide substrate).
Cc1ccccc1NC(=N)Nc1ccccc1C gave an IC50 of 0.13 ± 0.0138 µM (Sigma non-opioid intracellular receptor 1 (Sigmar1, Mus musculus, UniProt O55242); pH 8).
O=C(O[C@@H]1Cc2c(O)cc(O)cc2O[C@@H]1c1cc(O)c(O)c(O)c1)c1cc(O)c(O)c(O)c1 has an IC50 of 38.6 ± 24.9 µM (Cell division cycle 7-related protein kinase, with DBF4 (CDC7, Homo sapiens, UniProt O00311); enzyme activity, inhibitor, ADP-Glo luminescence; with: ATP 12.5 µM).
For CCCCC(C(=O)COc1c(F)c(F)cc(F)c1F)n1cc(C2(N)CCN(C(N)=O)CC2)nn1 (centres unmarked), the IC50 was over 20 µM (DPAP1 (Plasmodium falciparum, UniProt Q8IIJ9); inhibitor, fluorogenic substrate; Plasmodium falciparum lysate; 30 min).
The IC50 of COc1cccc(Cn2cc(CNC(=O)OCc3cn(Cc4ccccc4OC)nn3)nn2)c1 is reported as 0.0304 µM (FAAH; enzyme activity, inhibitor, fluorescence; cell membranes).
O=C(CSc1nc2ccccc2c(=O)n1-c1ccccc1)Nc1ccc(C(=O)C=Cc2ccc([N+](=O)[O-])cc2)cc1 gave an IC50 of 0.311 µM (PARP1; enzyme activity, inhibitor, absorbance).
O=C(OCc1ccccc1)c1ccccc1 has an IC50 of over 100 µM (FAAH; enzyme activity, inhibitor, fluorescence; with preincubation).
CC(C)CCn1c(CN2CCN(C(=O)c3ccco3)CC2)nc2c1c(=O)n(C)c(=O)n2C has an IC50 of over 100 µM (Retinal dehydrogenase 2 (ALDH1A2, Homo sapiens, UniProt O94788); enzyme activity, inhibitor; with: propionaldehyde).
With O=C(O)c1cc2ccccc2c(Cc2c(O)c(C(=O)O)cc3ccccc23)c1O the IC50 was 4.9 µM (DNA polymerase iota (Homo sapiens, UniProt Q9UNA4); enzyme activity, inhibitor).
O=c1[nH]c2ccccc2n1C1CCN(CCCC(c2ccc(F)cc2)c2ccc(F)cc2)CC1 has an IC50 of 5.3 ± 2.6 µM (Multidrug resistance-associated protein 1 (ABCC1, Homo sapiens, UniProt P33527); efflux, inhibitor, flow cytometry; SupT1 cells overexpressing ABCC1; with: JC-1 500 nM).
For NC(=O)c1cccc2c1O[C@@H](CN1CCN(c3ncccn3)CC1)CO2, the IC50 was over 5 µM (PARP1).
With O=C(O)C1=CC(=C(c2ccc(O)c(C(=O)O)c2)c2ccc(O)c(C(=O)O)c2)C=CC1=O the IC50 was 4.38 µM (PABPN1 (Homo sapiens, UniProt Q86U42); inhibitor, AlphaScreen counterscreen).
For CCOC(=O)CC1C(C(=O)OCC)=C(N)Oc2ccc(-c3cc(OC)cc(OC)c3)cc21 (single isomer, unassigned; (+)), the IC50 was 68 µM (Sarcoplasmic/endoplasmic reticulum calcium ATPase 1 (ATP2A1, Oryctolagus cuniculus, UniProt P04191); ATPase activity, inhibitor, absorbance).
With COc1cccc2cc(-c3nnc(SCC(=O)Nc4ccc(C)cc4C)n3-c3ccccc3)oc12 the IC50 was 1.58 ± 5.38 µM (fungal tyrosinase; enzyme activity, inhibitor, dopachrome absorbance; pH 6.8, 37 °C, with: L-tyrosine substrate).
CCN(CC)CCOc1ccc(NS(=O)(=O)c2ccc(CN3CCCCC3)cc2)cc1 gave an IC50 of 0.021 µM and 0.0211 µM (CXCR4; binding, inhibitor, competition binding; MDA-MB-231).
The IC50 of NC(=O)c1cccc2c1OC[C@@H](CN1CCN(c3ncccn3)CC1)O2 is reported as over 5 µM (PARP1).
The IC50 of O=c1c(O)c(-c2ccc(O)c(O)c2)oc2cc(O)cc(O)c12 is reported as over 250 µM (UDP-glucuronosyltransferase 1A9 (UGT1A9, Homo sapiens, UniProt O60656); inhibitor; pooled human liver microsomes; no preincubation, with: propofol).
The IC50 of O=C(O)CCC(C(=O)O)[C@@H]1CCN[C@H]1C(=O)O (relative stereo) is reported as over 100 µM (AMPA receptor, rat; binding; cortical synaptosomes; with: [3H]-AMPA).
CC/C(=C(/c1ccc(O)cc1)c1ccc(OCCN(C)C)cc1)c1ccccc1 gave an IC50 of 4.2 µM (Sodium channel protein type 2 subunit alpha (SCN2A, Homo sapiens, UniProt Q99250); ion current, inhibitor, patch clamp).
The IC50 of C#Cc1ccc2c(-c3ccccc3)c(C)c(=O)oc2c1 is reported as 1.68 µM (Cytochrome P450 1A2 (CYP1A2, Homo sapiens, UniProt P05177); enzyme activity, inhibitor; 6 min, pH 7.6).
For COc1ccc(-c2cc(=O)c3c(OC)c([C@@H]4O[C@H](C(=O)NC56CC7CC(CC(C7)C5)C6)[C@@H](O)[C@H](O)[C@H]4O)c(OC)cc3o2)cc1OC, the IC50 was 33.5 µM (Glycogen synthase kinase-3 beta (GSK3B, Homo sapiens, UniProt P49841); enzyme activity, inhibitor, ADP detection).
For O=c1c2ccccc2nc(NN=Cc2ccc([N+](=O)[O-])cc2)n1-c1ccccc1, the IC50 was 0.484 µM (PARP1; enzyme activity, inhibitor, absorbance).
For CC(C)C[C@H](NC(=O)[C@H](Cc1ccncc1)NC(=O)[C@H](Cc1ccccc1)N=[N+]=[N-])C(=O)N[C@H](/C=C/S(C)(=O)=O)Cc1ccc(CN)cc1, the IC50 was over 30 µM (Proteasome subunit beta type-6, caspase-like site (PSMB6, Homo sapiens, UniProt P28072); caspase-like activity, inhibitor; NCI-H929; 6 h).
Cc1ccccc1C(C(=O)NC1CCCCC1)N(C(=O)Cn1ccnc1C)c1cccc(F)c1 (centres unmarked) [fluorine-18 labelled] has an IC50 of under 0.05 µM (Isocitrate dehydrogenase [NADP] cytoplasmic (IDH1, Homo sapiens, UniProt O75874, R132H); enzyme activity, inhibitor; racemic compound, with: α-ketoglutarate).

For quick reference, copied from above:
Cc1ccc(N2CN(CC(=O)Nc3cccc(Cl)c3)S(=O)(=O)c3cccnc32)cc1 has an IC50 of 65 µM (Tyrosine--tRNA ligase 1 (tyrS1, Pseudomonas aeruginosa, UniProt Q9HWP3); tRNA aminoacylation, scintillation proximity; TyrRS-S).
CC/C(=C(/c1ccc(O)cc1)c1ccc(OCCN(C)C)cc1)c1ccccc1 gave an IC50 of 4.2 µM (Sodium channel protein type 2 subunit alpha (SCN2A, Homo sapiens, UniProt Q99250); ion current, inhibitor, patch clamp).
The IC50 of COc1cccc(Cn2cc(CNC(=O)OCc3cn(Cc4ccccc4OC)nn3)nn2)c1 is reported as 0.0304 µM (FAAH; enzyme activity, inhibitor, fluorescence; cell membranes).
For CC(C)C[C@H](NC(=O)[C@H](Cc1ccncc1)NC(=O)[C@H](Cc1ccccc1)N=[N+]=[N-])C(=O)N[C@H](/C=C/S(C)(=O)=O)Cc1ccc(CN)cc1, the IC50 was over 30 µM (Proteasome subunit beta type-6, caspase-like site (PSMB6, Homo sapiens, UniProt P28072); caspase-like activity, inhibitor; NCI-H929; 6 h).
Cc1ccccc1C(C(=O)NC1CCCCC1)N(C(=O)Cn1ccnc1C)c1cccc(F)c1 (centres unmarked) [fluorine-18 labelled] has an IC50 of under 0.05 µM (Isocitrate dehydrogenase [NADP] cytoplasmic (IDH1, Homo sapiens, UniProt O75874, R132H); enzyme activity, inhibitor; racemic compound, with: α-ketoglutarate).
